# Published values of several laboratories.
# Protocols differ between the studies behind these lines. “And” joins repeats or separate records; there may be more than shown. ± marks the error that the study gave.
# APP: Amyloid-beta precursor protein (APP, Homo sapiens, UniProt P05067)
# APP amyloid-beta fibrils: Amyloid-beta precursor protein, amyloid-beta fibrils (APP, Homo sapiens, UniProt P05067)
# APP amyloid-beta insoluble aggregates: Amyloid-beta precursor protein, amyloid-beta insoluble aggregates (APP, Homo sapiens, UniProt P05067)
SMILES,target,assay,test system,conditions,how to read,quantity,result
CC(C)C[C@H](NC(=O)CCS[C@H]1O[C@H](CO)[C@@H](O)[C@H](O)[C@H]1O)C(=O)N1CCC[C@H]1C(=O)N[C@@H](Cc1ccccc1)C(=O)N[C@@H](Cc1ccccc1)C(=O)N[C@@H](CC(=O)O)C(=O)N[C@@H](CC(=O)O)C(=O)N[C@@H](C)C(=O)N[C@@H](Cc1c[nH]cn1)C(=O)N[C@@H](CCCCN)C(N)=O,"Amyloid-beta precursor protein, fibril (APP, Homo sapiens, UniProt P05067)","amyloid aggregation, inhibitor",,5 µM,,inhibition,10%
O=c1cc(/C=C/c2ccc(N3CCCC3)cc2)oc(/C=C/c2ccc(N3CCCC3)cc2)c1,APP,"binding, fluorescence",,"2 µM, 7.4 min, pH 10, Abeta pre-incubated 4 h, together with: 20 µM pre-incubated Abeta species",,fluorescence enhancement,3.6 fold
CCC1CC2C(C)=CC3C(=O)CCCC3C=CC(C)=CC2C(=O)O1 (stereo not drawn),APP amyloid-beta fibrils,"thioflavin T, measured: Aβ42 pre-formed fibrils",,5 µM,,fibril dissociation,0.36%
CN1CCN(c2ccc(/C=C/c3cc(=O)cc(/C=C/c4ccc(N5CCN(C)CC5)cc4)o3)cc2)CC1,"Amyloid-beta precursor protein, amyloid-beta aggregates (APP, Homo sapiens, UniProt P05067)",TEM and dot blot,,"2 µM, together with: amyloid beta 20 µM",,amyloid beta aggregation,no effect
CCCCCCCCCCCCCCCC(=O)OCC(CSC[C@H](N)C(=O)N[C@@H](CO)C(=O)N[C@@H](CCCCN)C(=O)N[C@@H](CCCCN)C(=O)N[C@@H](CCCCN)C(=O)N[C@@H](CCCCN)C(=O)NCCCCCC(=O)N[C@@H](CCCCN)C(=O)N[C@@H](CC(C)C)C(=O)N[C@H](C(=O)N[C@@H](Cc1ccccc1)C(=O)N[C@@H](Cc1ccccc1)C(=O)N[C@@H](Cc1ccc2ccccc2c1)C(=O)O)C(C)C)OC(=O)CCCCCCCCCCCCCCC (stereo partly drawn),"Amyloid-beta precursor protein, fibrillar amyloid-beta (APP, Homo sapiens, UniProt P05067)",TEM,,"2.0 eq, 8 h, fibril 2, together with: APP 20 µM",,fibril diameter,40.6 nm
O=C1c2sc(-c3ccc(N4CCC(F)C4)nc3F)nc2CCN1c1cccnc1 (stereo not drawn),APP amyloid-beta insoluble aggregates,radioligand filter binding,AD brain insoluble fraction,100 nM,higher = more binding,specific binding,1150 a.u. and 692 a.u.
CCC1CC2C(C)=CC3C(=O)C=CCC3C=CC(C)=CC2C(=O)O1 (stereo not drawn),APP amyloid-beta fibrils,"thioflavin T, measured: Aβ42 pre-formed fibrils",,50 µM,,fibril dissociation,19.8%
O=C1c2sc(-c3ccc(N4CCC(CO)CC4)nc3F)nc2CCN1c1cccnc1,APP amyloid-beta insoluble aggregates,radioligand filter binding,AD brain insoluble fraction,250 nM,higher = more binding,specific binding,1380 a.u. and 2370 a.u.
CC[C@H](C)[C@H](NC(=O)[C@@H](NC(=O)[C@@H](NC(=O)[C@@H](NC(=O)[C@@H](N)CCCCN)C(C)C)C(C)C)C(C)C)C(=O)N[C@H](C(N)=O)[C@@H](C)O,APP,"fibril formation, ThT fluorescence",,"10 µM, 42 h, pH 7.4, equimolar to peptide, together with: amyloid-beta 1-42 10 µM",relative to: untreated amyloid-beta,ThT fluorescence,95 ± 12%

# Some of these lines once more:
SMILES,target,assay,test system,conditions,how to read,quantity,result
O=C1c2sc(-c3ccc(N4CCC(F)C4)nc3F)nc2CCN1c1cccnc1 (stereo not drawn),APP amyloid-beta insoluble aggregates,radioligand filter binding,AD brain insoluble fraction,100 nM,higher = more binding,specific binding,1150 a.u. and 692 a.u.
